Measurements collected from several papers.
Compare with care: the assays were run in different laboratories. Numbers after ± are the reported error. Where no end group is shown, it is not given here. Ends that are not written are not given here. * marks the point of attachment.
MAL12: Alpha-glucosidase MAL12 (MAL12, Saccharomyces cerevisiae S288c, UniProt P53341)
Chain of UniProt P53341 (whole entry, looked up): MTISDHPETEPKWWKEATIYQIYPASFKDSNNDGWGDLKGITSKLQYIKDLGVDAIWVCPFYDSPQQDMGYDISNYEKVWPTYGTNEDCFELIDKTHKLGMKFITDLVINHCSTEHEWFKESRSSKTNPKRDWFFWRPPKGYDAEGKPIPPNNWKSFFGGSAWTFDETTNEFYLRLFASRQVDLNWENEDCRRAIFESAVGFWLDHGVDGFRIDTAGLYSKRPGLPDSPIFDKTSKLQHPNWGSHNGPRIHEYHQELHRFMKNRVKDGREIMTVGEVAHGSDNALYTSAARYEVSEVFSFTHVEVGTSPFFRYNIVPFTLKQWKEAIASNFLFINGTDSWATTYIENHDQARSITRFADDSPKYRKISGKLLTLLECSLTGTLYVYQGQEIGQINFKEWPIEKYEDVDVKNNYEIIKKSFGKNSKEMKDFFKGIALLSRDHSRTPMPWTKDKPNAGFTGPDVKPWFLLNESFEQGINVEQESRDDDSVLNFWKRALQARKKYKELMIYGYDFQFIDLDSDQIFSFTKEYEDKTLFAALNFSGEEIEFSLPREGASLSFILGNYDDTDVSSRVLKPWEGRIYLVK
WWOX WW1 domain: WW domain-containing oxidoreductase, WW1 domain (WWOX, Homo sapiens, UniProt Q9NZC7)
Chain of UniProt Q9NZC7 (whole entry, unmodified, looked up): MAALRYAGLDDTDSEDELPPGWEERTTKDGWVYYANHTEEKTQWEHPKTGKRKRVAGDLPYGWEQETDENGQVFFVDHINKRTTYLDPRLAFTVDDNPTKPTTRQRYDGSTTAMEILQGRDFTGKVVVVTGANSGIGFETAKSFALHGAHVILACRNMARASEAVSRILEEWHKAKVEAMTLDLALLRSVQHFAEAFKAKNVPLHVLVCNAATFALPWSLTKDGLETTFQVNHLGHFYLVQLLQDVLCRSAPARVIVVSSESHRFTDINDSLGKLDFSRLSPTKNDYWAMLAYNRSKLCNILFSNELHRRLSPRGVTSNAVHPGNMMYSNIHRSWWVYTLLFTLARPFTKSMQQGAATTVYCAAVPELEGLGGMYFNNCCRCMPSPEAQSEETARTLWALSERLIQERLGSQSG
HBA1 with beta chain: Hemoglobin subunit alpha, with beta chain (HBA1, Homo sapiens, UniProt P69905)
Chain of UniProt P69905 (whole entry, looked up): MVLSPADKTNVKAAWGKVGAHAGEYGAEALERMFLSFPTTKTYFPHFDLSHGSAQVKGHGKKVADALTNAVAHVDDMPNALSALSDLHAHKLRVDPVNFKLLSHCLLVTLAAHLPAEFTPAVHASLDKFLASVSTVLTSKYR
SCN9A: Sodium channel protein type 9 subunit alpha (SCN9A, Homo sapiens, UniProt Q15858)
Chain of UniProt Q15858 (whole entry, looked up): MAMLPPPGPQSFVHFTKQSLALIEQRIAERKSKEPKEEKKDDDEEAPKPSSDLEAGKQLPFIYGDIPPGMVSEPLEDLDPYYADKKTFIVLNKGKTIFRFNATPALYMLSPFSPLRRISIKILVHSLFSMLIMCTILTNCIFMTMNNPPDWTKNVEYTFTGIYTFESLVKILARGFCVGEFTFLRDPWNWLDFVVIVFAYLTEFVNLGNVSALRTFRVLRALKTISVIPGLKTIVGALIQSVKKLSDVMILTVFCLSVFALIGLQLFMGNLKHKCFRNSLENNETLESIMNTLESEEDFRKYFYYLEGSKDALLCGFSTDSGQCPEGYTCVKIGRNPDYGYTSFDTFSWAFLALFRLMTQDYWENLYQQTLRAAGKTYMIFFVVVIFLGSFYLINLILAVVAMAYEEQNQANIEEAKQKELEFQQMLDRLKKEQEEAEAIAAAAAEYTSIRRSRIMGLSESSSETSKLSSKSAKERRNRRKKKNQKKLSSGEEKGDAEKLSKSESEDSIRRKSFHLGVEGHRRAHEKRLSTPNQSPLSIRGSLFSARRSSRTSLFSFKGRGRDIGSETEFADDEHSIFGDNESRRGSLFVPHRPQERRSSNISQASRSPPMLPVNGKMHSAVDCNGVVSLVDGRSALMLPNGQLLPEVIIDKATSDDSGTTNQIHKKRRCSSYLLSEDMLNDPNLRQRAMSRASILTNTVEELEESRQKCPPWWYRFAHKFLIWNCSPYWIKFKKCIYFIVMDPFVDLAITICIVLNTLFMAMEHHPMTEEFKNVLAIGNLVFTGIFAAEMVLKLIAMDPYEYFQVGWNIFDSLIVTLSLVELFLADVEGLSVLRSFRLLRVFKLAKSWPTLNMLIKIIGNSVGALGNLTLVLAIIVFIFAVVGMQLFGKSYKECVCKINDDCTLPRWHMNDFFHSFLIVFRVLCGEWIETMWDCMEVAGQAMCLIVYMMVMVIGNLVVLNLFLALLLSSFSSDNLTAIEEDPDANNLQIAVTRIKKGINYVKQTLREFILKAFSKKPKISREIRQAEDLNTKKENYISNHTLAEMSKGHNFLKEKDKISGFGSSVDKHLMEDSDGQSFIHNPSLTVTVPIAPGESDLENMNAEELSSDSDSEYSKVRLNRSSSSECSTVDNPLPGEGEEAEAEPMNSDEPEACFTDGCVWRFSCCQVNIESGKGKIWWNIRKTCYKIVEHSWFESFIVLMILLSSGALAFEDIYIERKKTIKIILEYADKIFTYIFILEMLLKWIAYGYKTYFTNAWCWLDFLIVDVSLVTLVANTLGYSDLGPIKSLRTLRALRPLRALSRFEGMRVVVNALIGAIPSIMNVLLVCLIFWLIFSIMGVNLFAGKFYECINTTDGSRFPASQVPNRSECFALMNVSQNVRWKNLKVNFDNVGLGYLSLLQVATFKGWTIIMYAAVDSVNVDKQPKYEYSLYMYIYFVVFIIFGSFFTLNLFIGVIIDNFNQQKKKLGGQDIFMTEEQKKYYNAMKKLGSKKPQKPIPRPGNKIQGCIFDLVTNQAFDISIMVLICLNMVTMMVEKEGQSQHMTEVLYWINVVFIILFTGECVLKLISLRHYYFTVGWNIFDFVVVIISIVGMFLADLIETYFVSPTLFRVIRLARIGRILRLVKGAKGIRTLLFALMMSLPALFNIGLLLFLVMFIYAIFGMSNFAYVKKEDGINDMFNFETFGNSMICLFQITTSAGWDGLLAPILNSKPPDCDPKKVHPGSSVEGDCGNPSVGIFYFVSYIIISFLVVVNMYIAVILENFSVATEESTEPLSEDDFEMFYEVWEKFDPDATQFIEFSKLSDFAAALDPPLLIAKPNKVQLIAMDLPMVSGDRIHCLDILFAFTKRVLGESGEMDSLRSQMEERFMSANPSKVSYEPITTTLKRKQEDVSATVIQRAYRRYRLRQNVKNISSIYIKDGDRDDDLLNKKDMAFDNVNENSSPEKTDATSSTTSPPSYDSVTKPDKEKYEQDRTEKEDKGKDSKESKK
B1: disulfide; chain GLIHQYCQGYWRHVPPSPREAPGAPRSPEPDQKKPRNRRHHPPDT (disulfide (positions not given here))
Chain of UniProt Q14123 (whole entry, looked up): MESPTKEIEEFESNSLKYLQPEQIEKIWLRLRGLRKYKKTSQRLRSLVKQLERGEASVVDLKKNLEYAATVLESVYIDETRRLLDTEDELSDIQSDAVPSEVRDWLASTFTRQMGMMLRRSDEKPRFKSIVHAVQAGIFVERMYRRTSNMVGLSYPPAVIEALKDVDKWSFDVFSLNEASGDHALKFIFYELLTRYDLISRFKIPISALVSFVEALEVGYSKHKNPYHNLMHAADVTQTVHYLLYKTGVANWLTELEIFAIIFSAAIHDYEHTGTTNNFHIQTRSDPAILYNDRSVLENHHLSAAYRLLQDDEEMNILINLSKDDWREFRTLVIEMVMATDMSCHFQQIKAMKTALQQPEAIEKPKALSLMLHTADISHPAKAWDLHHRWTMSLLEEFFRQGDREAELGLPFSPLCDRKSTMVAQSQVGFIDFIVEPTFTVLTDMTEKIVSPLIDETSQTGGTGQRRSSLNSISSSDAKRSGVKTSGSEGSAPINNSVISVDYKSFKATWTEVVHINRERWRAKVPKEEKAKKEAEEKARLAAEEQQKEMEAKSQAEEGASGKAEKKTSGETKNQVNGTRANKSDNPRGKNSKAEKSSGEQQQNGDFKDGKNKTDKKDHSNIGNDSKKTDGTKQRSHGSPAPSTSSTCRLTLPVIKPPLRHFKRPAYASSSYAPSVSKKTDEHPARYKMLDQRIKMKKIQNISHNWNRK
Chain of UniProt Q64663 (whole entry, unmodified, looked up): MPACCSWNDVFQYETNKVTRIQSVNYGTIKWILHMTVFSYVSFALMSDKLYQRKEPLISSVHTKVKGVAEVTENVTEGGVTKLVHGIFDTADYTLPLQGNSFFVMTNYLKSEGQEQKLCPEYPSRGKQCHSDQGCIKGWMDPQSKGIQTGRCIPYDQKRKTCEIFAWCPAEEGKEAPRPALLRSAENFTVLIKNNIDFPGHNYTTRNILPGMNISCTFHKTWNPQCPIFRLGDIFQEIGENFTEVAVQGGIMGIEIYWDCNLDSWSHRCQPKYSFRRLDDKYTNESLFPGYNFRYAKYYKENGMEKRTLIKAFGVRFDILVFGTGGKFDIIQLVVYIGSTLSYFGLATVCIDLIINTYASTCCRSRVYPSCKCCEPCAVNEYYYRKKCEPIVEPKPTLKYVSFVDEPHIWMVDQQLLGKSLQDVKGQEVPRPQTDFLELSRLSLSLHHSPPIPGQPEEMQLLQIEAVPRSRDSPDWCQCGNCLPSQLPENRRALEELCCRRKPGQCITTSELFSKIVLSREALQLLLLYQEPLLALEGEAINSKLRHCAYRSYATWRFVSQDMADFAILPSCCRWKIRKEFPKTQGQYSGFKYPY
Chain of UniProt P33033 (whole entry, looked up): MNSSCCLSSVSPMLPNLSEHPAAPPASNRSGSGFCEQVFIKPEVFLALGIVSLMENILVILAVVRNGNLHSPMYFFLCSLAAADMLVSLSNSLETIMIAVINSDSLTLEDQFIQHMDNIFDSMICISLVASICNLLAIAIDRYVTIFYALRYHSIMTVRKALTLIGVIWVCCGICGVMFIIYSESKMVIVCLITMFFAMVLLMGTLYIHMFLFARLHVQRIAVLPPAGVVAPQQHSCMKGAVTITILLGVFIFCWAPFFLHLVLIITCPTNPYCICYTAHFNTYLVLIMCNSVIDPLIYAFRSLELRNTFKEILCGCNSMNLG

COc1ccc(-c2cc(=O)c3ccc(O)cc3o2)cc1  inhibition (MAL12; enzyme activity, inhibitor, absorbance; 100 µM): 34.4%
CC(C)C[C@H](NC(=O)[C@@H](NC(=O)[C@@H](N)[C@@H](C)O)C(C)C)C(=O)N1CCC[C@H]1C(=O)N1CCC[C@H]1C(=O)N1CCC[C@H]1C(=O)N[C@@H](C)C(=O)N[C@@H](Cc1ccc(O)cc1)C(=O)N[C@@H](CCCNC(=N)N)C(=O)N[C@@H](Cc1c[nH]cn1)C(=O)N[C@@H](CCCNC(=N)N)C(=O)N[C@@H](CC(N)=O)C(=O)O  binding enthalpy ΔH (WWOX WW1 domain; binding to WW1 domain, isothermal titration calorimetry; concentration not given, pH 7.0, 25 °C): -3.63 ± 0.3 kcal/mol
COc1cc2c(=O)c(OC)c(-c3ccccc3)oc2c(O)c1OC  inhibition (MAL12; enzyme activity, inhibitor, absorbance; 50 µM): 49.1%
CC[C@H](C)[C@H](NC(=O)[C@H](CC(N)=O)NC(=O)[C@H](Cc1c[nH]cn1)NC(=O)[C@@H](NC(=O)[C@H](CCC(N)=O)NC(=O)[C@H](CCCNC(=N)N)NC(=O)[C@@H](NC(=O)[C@@H](N)CCC(=O)O)[C@@H](C)CC)[C@@H](C)O)C(=O)N[C@@H](Cc1ccccc1)C(=O)N[C@@H](Cc1ccccc1)C(=O)N[C@@H](CC(N)=O)C(=O)N[C@@H](Cc1ccccc1)C(=O)N[C@@H](Cc1ccccc1)C(=O)N[C@@H](CCCCN)C(=O)N[C@@H](CCCNC(=N)N)C(=O)N[C@@H](CCCNC(=N)N)C(=O)O  ComD1 activation (histidine kinase ComD (Streptococcus pneumoniae serotype 2, UniProt A0A0H2ZM50); reporter gene, agonist; Streptococcus pneumoniae, D39 pcomX::lacZ; 10 µM; baseline: native CSP1): > 75%
O=Cc1ccc(COc2ccccc2)o1  peak modification (HBA1 with beta chain; measured: haemoglobin A adduct; human normal whole blood; 2000 µM, 24 h, hematocrit 30%): 27.9%
COc1c(O)ccc2c(=O)cc(-c3ccccc3)oc12  inhibition (MAL12; enzyme activity, inhibitor, absorbance; 25 µM): 6.5%
Cc1cc2nc3c(=O)[nH]c(=O)nc-3n(C[C@H](O)[C@H](O)[C@H](O)COP(=O)(O)OP(=O)(O)OC[C@H]3O[C@@H](n4cnc5c(N)ncnc54)[C@H](O)[C@@H]3O)c2cc1C  cofactor occupancy (Cry4 (Columba livia, UniProt A0A386QUR4); UV-visible absorption; co-purified, mainly oxidized): > 95%
COc1cc2oc(-c3ccc(O)cc3)cc(=O)c2c(O)c1OC  inhibition (MAL12; enzyme activity, inhibitor, absorbance; 50 µM): 86.6%
CSc1ccc(/C=C2/C(C)=C(CC(=O)O)c3cc(F)ccc32)cc1  IC50 (PDE1C (Homo sapiens, UniProt Q14123); cAMP hydrolysis, inhibitor, IMAP fluorescence polarization; up to 200 µM): inactive
RCTKLEYDPRCVYDP  patients with IgE binding (human IgE; peptide microarray; peptide, peanut/walnut-allergic patient sera; concentration not given, 16 h, 4 °C): 81%
Nc1ccc(C=CC(=O)O)cc1  kinact (Peptidylglycine alpha-amidating monooxygenase, PHM domain (Pam, Rattus norvegicus, UniProt P14925); inactivator; pH 6.0, 37 °C, with: 5.0 mM ascorbate): 0.0005 ± 8.33e-05 s⁻¹
CC(=O)N[C@@H](Cc1c[nH]c2ccccc12)C(=O)N[C@H](Cc1ccccc1)C(=O)N[C@@H](CCCNC(=N)N)C(=O)N[C@@H](Cc1csc2ccccc12)C(N)=O  agonist and antagonist activity (Melanocortin receptor 3 (Mus musculus, UniProt P33033); receptor activity, agonist, cell-based; up to 100 µM, Schild antagonism analysis): inactive
CC[C@H](C)[C@H](NC(=O)[C@@H]1CCCN1C(=O)[C@@H]1CCCN1C(=O)[C@@H]1CCCN1C(=O)[C@@H](NC(=O)[C@H](CC(N)=O)NC(=O)[C@@H](N)Cc1ccccc1)[C@@H](C)CC)C(=O)N[C@@H](Cc1ccc(O)cc1)C(=O)N[C@H](C(=O)N[C@@H](CO)C(=O)N[C@@H](CCCNC(=N)N)C(=O)N[C@@H](C)C(=O)O)[C@@H](C)O  ΔG (WWOX WW1 domain; binding, ITC; pH 7.0, 25 °C): -4.67 ± 0.05 kcal/mol
C=CC(=O)Nc1ccccc1Nc1nc(Nc2ccc(N3CCN(C)CC3)cc2)ncc1Cl  labelling (YES1 (Homo sapiens, UniProt P07947); probe binding, inhibitor, chemoproteomic competition; NCI-H23 KRAS G12C; 10 nM, 2 h, with: 2 µM desthiobiotin probe): > 50%
C[N+](C)(C)C[C@@H](O)CC(=O)[O-]  inhibition (SLC22A5 (Homo sapiens, UniProt O76082); transporter uptake, inhibitor; 50 µM): 73.3%
CCCNC(C)C(=O)Nc1c(C)csc1C(=O)OCCC (centres unmarked)  capacity factor k′ (SCN9A; cell membrane chromatography; higher = stronger binding): 81.4
CCCCC/C=C\S/C=C\CCCCCCCC(=O)O  Kii (ALOX15 (Homo sapiens, UniProt P16050); inhibitor; pH 7.5, noncompetitive inhibition, with: linoleic acid and 13-HPODE): 20 µM
O=C(O)c1ccc2ccccc2n1  UV signal reduction (PY04617 (Plasmodium yoelii, UniProt Q7RFT5); ultrafiltration HPLC-UV; 0.1 mM, pH 7.25, 4 °C, 6.5% DMSO, with: methionine competitor): 50.2 ± 0.8%
O=c1c2ccccc2[se]n1-c1ccccc1  remaining activity (Alpha-methylacyl-CoA racemase (AMACR, Homo sapiens, UniProt Q9UHK6); enzyme activity; 100 µM, with: thiol reagents TBP and iodoacetamide; baseline: untreated): ~50%
O=c1cc(-c2ccc(O)cc2)oc2cc(O)cc(O)c12  V1/2 shift (Kcnh1 (Mus musculus, UniProt Q60603); inside-out patch clamp; Xenopus oocytes; 10 µM): -5.3 ± 1.9 mV
CC(=O)N[C@@H]1[C@@H](O)[C@H](O[C@@H]2O[C@H](CO)[C@@H](O[C@@H]3O[C@H](CO[C@H]4O[C@H](CO)[C@@H](O)[C@H](O)[C@@H]4O)[C@@H](O)[C@H](O[C@H]4O[C@H](CO)[C@@H](O)[C@H](O)[C@@H]4O)[C@@H]3O)[C@H](O)[C@H]2NC(C)=O)[C@@H](CO)O[C@H]1NC(=O)C[C@H](N)C(=O)O  fluorescence (NT1 (Nicotiana tabacum, UniProt Q94EW1); glycan binding, glycan array; with: Alexa 488-labelled lectin 150 µg/mL): 18600 RFU
KACESRCTKLEYDPR  patients with IgE binding (human IgE; peptide microarray; peptide, walnut-allergic patient sera; concentration not given, 16 h, 4 °C): 42%
COc1ccc(C=NN=c2sc(C(=O)c3ccc(Cl)cc3)c(C)n2N=Cc2ccc(OC)cc2)cc1  binding constant (Albumin (ALB, Bos taurus, UniProt P02769); fluorescence quenching; phosphate-buffered saline; pH 7.4, 298 K, with: bovine serum albumin 13 µM): 186000 M⁻¹
COC(=O)c1scc(C)c1NC(=O)C(C)N1CC(C)OC(C)(C)C1 (centres unmarked)  capacity factor k′ (SCN9A; cell membrane chromatography; higher = stronger binding): 5.8
CC(C)C[C@H](NC(=O)[C@@H](NC(=O)[C@@H](N)[C@@H](C)O)C(C)C)C(=O)N1CCC[C@H]1C(=O)N1CCC[C@H]1C(=O)N1CCC[C@H]1C(=O)N1CCC[C@H]1C(=O)N[C@@H](Cc1ccc(O)cc1)C(=O)N[C@@H](CCCNC(=N)N)C(=O)N[C@@H](Cc1c[nH]cn1)C(=O)N[C@@H](C)C(=O)N[C@@H](CC(N)=O)C(=O)O  binding free energy ΔG (WWOX WW1 domain; binding to WW1 domain, isothermal titration calorimetry; pH 7.0, 25 °C): -5.29 ± 0.13 kcal/mol
CC(C)(C)OCc1ccc(C=O)o1  P50 change (Hemoglobin subunit alpha, with sickle beta chain (HBA1, Homo sapiens, UniProt P69905); oxygen affinity; sickle red cell lysate; 2000 µM; baseline: untreated): 24 ± 5.6%
COc1ccccc1CNCCCCCCNCCCCCCCCNCCCCCCNCc1ccccc1OC  liposome-bound oligomers (Alpha-synuclein, oligomers (SNCA, Homo sapiens, UniProt P37840); oligomer-vesicle binding, FIDA; 5 µM, with: 150 nM oligomers, 50 µM DOPG liposomes): 0%
COc1ccc(OCc2ccccn2)c(C=O)c1  koff (HBA1 with beta chain; kinetic binding, cation-exchange HPLC; 37 °C): 0.7 h⁻¹
H-AQHLLVLPRGLLGCTTLAK(Biotin) (Biotin = O=C1N[C@H]2[C@H](CS[C@H]2CCCCC(=O)*)N1)  competition with IgG1 (FcγRI; binding, ELISA; peptide; 16.6, 5.53, 1.84 µM, 2 h, 24 °C, with: human IgG1 1.3 µM): inactive
Clc1cccc(Nc2nnc(-c3ccccc3)c3ccccc23)c1  IC50 (PDE2A (Homo sapiens, UniProt O00408); cGMP hydrolysis, inhibitor, fluorescence polarization; recombinant enzyme; up to 100 µM, 30 min preincubation, 30 °C, with: TAMRA-cGMP 25 nM): inactive
BzATP  decay time constant τ2 (P2X purinoceptor 7 (P2rx7, Rattus norvegicus, UniProt Q64663); ion current, whole-cell patch clamp; HEK293, transfected; with: after agonist washout, Ca2+ medium): 14.9 ± 1.1 s
CSCC[C@H](NC(=O)[C@@H]1CCCN1C(=O)[C@@H](NC(=O)[C@H](Cc1ccc(O)cc1)NC(=O)[C@H](C)NC(=O)[C@@H]1CCCN1C(=O)[C@@H]1CCCN1C(=O)[C@@H]1CCCN1C(=O)[C@H](CO)NC(=O)[C@H](Cc1c[nH]cn1)NC(=O)CN)[C@@H](C)O)C(=O)N[C@@H](CO)C(=O)O  TΔS (WW domain-containing oxidoreductase, WW1-WW2 tandem domains (WWOX, Homo sapiens, UniProt Q9NZC7); binding, ITC; pH 7.0, 25 °C): 0.26 ± 0.34 kcal/mol
COc1ccc(OCC2c3cc(OC)c(OC)cc3CCN2C(=O)c2cccc(Cl)c2)cc1 (centres unmarked)  open time constant 2 (Glutamate receptor ionotropic, NMDA 2D, with NR1 (Rattus norvegicus, UniProt Q62645); outside-out patch clamp; 10 µM, with: GluN1 co-expressed): 0.63 ± 0.06 ms
B1  sedimentation coefficient, free ligand (Neuropilin-2 (NRP2, Homo sapiens, UniProt O60462); sedimentation velocity AUC; 2.5-fold molar excess, pH 7.5, 4 °C, 8 µM b1b2 domain): 1.26 S
farnesene  fluorescence intensity of probe (chemosensory protein 3 (Chilo suppressalis, UniProt V9PY40); ligand, competitive fluorescence binding; concentration not given, pH 7.4, highest concentration tested, with: 2 µM fluorescent probe): 88.9 ± 2.75%
CN(C)c1ccc(C(=NN=Cc2cc(Br)ccc2O)c2ccc(N(C)C)cc2)cc1  activity (MAL12; enzyme activity, inhibitor; concentration not given, pH 6.8, 37 °C, with: p-nitrophenyl alpha-D-glucopyranoside): inactive
CCCN1CCN(C(C)C(=O)Nc2c(C)csc2C(=O)OC)CC1 (centres unmarked)  capacity factor k′ (SCN9A; cell membrane chromatography; higher = stronger binding): 6
COc1c(-c2ccc(O)cc2)oc2c(OC)c(O)cc(O)c2c1=O  inhibition (MAL12; enzyme activity, p-nitrophenyl glucoside substrate; 10 µM, series 250 to 10 µM): > 50%
CCCCCCCCC(=O)NC1CCC1=O (centres unmarked)  IC50 (NAAA (Homo sapiens, UniProt Q02083); enzyme activity, inhibitor, fluorogenic PAMCA hydrolysis; pH 4.5, with: 5 µM PAMCA): inactive
CC1=C(C(=O)OCc2ccccc2)C(c2ccc(-c3ccccc3)cc2)N(Cc2ccc(-c3nnn[nH]3)cc2)C(=S)N1 (centres unmarked)  fold change in activity (Heat shock 70 kDa protein 1A, with Hdj2 (HSPA1A, Homo sapiens, UniProt P0DMV8); ATPase activity, inhibitor; 100 µM, Hsp40-stimulated activity, with: Hdj2 Hsp70:Hsp40 1:0.5; baseline: DMSO, negative means inhibition): -5.3 fold
CC(C)OCc1ccc(C=O)o1  peak modification (HBA1 with beta chain; measured: haemoglobin A adduct; human normal whole blood; 2 mM, 24 h, hematocrit 30%): 15.8%

Excerpt of the above:
CCCNC(C)C(=O)Nc1c(C)csc1C(=O)OCCC (centres unmarked)  capacity factor k′ (SCN9A; cell membrane chromatography; higher = stronger binding): 81.4
CCCCC/C=C\S/C=C\CCCCCCCC(=O)O  Kii (ALOX15 (Homo sapiens, UniProt P16050); inhibitor; pH 7.5, noncompetitive inhibition, with: linoleic acid and 13-HPODE): 20 µM
O=C(O)c1ccc2ccccc2n1  UV signal reduction (PY04617 (Plasmodium yoelii, UniProt Q7RFT5); ultrafiltration HPLC-UV; 0.1 mM, pH 7.25, 4 °C, 6.5% DMSO, with: methionine competitor): 50.2 ± 0.8%
O=c1c2ccccc2[se]n1-c1ccccc1  remaining activity (Alpha-methylacyl-CoA racemase (AMACR, Homo sapiens, UniProt Q9UHK6); enzyme activity; 100 µM, with: thiol reagents TBP and iodoacetamide; baseline: untreated): ~50%
